Results gathered from unrelated publications.
Parts stem from different laboratories: compare values within a part only. Positions count from the first letter of the parent shown.

Study 1
Target: RING finger protein unkempt homolog, zinc fingers 1-6, GST-SBP tag (UNK, Homo sapiens, UniProt Q9C0B0, residues 30-357)
Technique: RNA Bind-n-Seq
Molecule type: RNA
Medium: in vitro
Concentration: not given
Setting: RNA with constant flanks, ends assumed
Baseline: input RNA pool
Reading: higher = stronger binding
Quantity: bound/input enrichment
Shared flanks, not repeated: GGGAGUUCUACAGUCCGACGAUC … CAACAGAGGAUUGAGCAUCA
Residues (chain): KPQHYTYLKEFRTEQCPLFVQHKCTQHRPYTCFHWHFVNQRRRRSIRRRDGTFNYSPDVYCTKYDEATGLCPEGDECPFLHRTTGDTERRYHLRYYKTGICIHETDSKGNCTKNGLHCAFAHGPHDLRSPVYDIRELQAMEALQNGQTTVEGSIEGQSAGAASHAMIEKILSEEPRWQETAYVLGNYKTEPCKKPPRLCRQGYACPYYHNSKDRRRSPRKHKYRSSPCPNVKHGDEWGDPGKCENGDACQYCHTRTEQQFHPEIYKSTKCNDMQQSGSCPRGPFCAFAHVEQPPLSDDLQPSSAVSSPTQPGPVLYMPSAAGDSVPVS
CUAUGCCUAACAGAGCCCCAGUACAACUAUUUUGCAGAAUGGCUGUUACCCUAGAAUUACUACCGCACAUAUUGAGAUAUAGUUGUACUCCCUAGUAGAUAGGAACUGACCCCAACAAUA: 2.75 ratio
ACAAUUUAUGAGAUUAUUGAUAAUUCUCAAGGAUUCUACGUUUGUCCAGUGGAGCCCCAAAACCGAAGCAAGAUGAAUAUUCCAUUCCGCAUUGGCAAUGCCAAAGGAGAUGAUGCUUUA: 0.17 ratio
AGGCGCAAAGCAGCAAAUGUCACGUUACUCACCUCCCUGGUGGAAGGAGAAGCUGUUCACUCCGCCCGGGAUUUUGGGUACAUUUGCGAAACGGAGUUUCCCGCCAAAGCCGUCUCUGAG: 0.0641 ratio
CCUUUCUUAGCAGUUAACCGAGAGCGGCGCCUCCCUCCGCGAGGAAACGGCAGCGUGUGCUGCCGCGUGGGUAUGGCCGACUACUCCACAGUGCCUCCGCCGUCGUCUGGCUCGGCUGGC: 0.519 ratio
UUGUGGGCGUUCUCGGGGAGCUGCUGCCGUAGCUGCCGCCGCCGCUACCACCGCGUUCGGGUGCCGAAUUUGGAAUCCCUGCGCCGCGUUAACAAUGAAGCAGAGUUCGAACGUGCCGGC: 0.112 ratio
UAGUGAAUGGUUUCCCCAGUGUAUAUGAAUGUUUUAAGUGUUUCCAAUAGCUUAUGAAAUUCCGGAGCUUUCUAAUACUCGUUUUAUAAAUUUAAUCAUUUGCUAAUGGAAAUUUUACCA: 4.66 ratio
GUAAAACUGGUACUUCCAAAGACCAAGUUUUCAAUGGUAUUACCAGAAGUAGAAGCGGCAUCCGCAGAGAUUCCCGGAGUCAGGAGUGUUGUAUUAUUUGGAGUAGAAACUCAUGUGUGC: 0.517 ratio
GUAUGGUUACUAAAAAGUACCAGCAUGUUAACUUUAUUACAAUUUGUAUUACUUUCUCUGCCGUUCCUAAUGGAUUCAAUUACGGACUCUGGAUAUUUGCACUUAUGUACUUGAUACUGA: 0.479 ratio

Study 2
Target: Ras GTPase-activating protein-binding protein 1, RRM domain (G3BP1, Homo sapiens, UniProt Q13283)
Sequence of UniProt Q13283 (whole entry, looked up): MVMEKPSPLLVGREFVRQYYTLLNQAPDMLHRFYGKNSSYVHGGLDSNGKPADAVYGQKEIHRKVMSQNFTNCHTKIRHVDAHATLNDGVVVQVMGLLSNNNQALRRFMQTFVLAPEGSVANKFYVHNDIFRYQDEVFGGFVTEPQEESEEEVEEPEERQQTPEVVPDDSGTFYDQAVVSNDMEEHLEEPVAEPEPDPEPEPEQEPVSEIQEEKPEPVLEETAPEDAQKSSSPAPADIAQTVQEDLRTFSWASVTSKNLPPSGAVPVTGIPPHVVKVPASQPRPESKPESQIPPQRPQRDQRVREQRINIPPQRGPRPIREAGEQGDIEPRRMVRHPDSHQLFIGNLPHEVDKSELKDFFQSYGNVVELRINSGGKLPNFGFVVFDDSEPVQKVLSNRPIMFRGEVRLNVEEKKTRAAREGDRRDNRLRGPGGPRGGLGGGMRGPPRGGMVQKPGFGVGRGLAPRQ
Technique: RNA Bind-n-Seq
Molecule type: RNA
Medium: in vitro
Concentration: 1 µM
Setting: whole 134-nt RNA, ends assumed
Added: 150 mM KCl
Baseline: input library
Reading: higher = stronger binding
Quantity: log2 enrichment
Shared flanks, not repeated: GGGAGUUCUACAGUCCGACGAUC … UGGAAUUCUCGGGUGUCAAGG
ACCAUGCAGGUGGGCAUCUUUGGGAAGUGGGGCAAGGGGGGGAUAGGGACGGGGGUAACACUUUGGGAACAGGUGGUCCCAGGUCGUUUC: 0.922
UAACUUUAGAGGAGGAUCUGAUGGAUAUGGCAGUGGACGUGGAUUUGGGGAUGGCUAUAAUGGGUAUGGAAGAGGACCUGGAGGUGGCAA: -0.387
AAGUCCUGUGCUACACAUCGUAUGUACCGAAUCGGAGGUUUUUUUGGUUUUUUUGGAAAGUAUUAUGUUACGCCGUUCGGAUCUGCACUU: -0.404
UCCUGUGCUACACAUCGUAUGUACCGAAUCGGGGCCCCCCGGCCCCCCGGGCCCCCCGGGAAAGUAUUAUGUUACGCCGUUCGGAUCUGC: -0.375
UGGCCCUGGUGGCAUGCGGGGAGGAAGAGGUGGCCUCAUGAAUCGUGGUGGUCCCGGUGGAAUGUUCAGAGGUGGCCGUGGUGGAGACAG: 0.373
AAGUCCUGUGCUACACAUCGUAUGUACCGAAUCGGGAAAAAGGGAAAAAGGGUGGGAAAGUAUUAUGUUACGCCGUUCGGAUCUGCACUU: 0.885
CAAGUCCUGUGCUACACAUCGUAUGUACCGAAUCGGGUUUUUUUGGGUGGGUGGGAAAGUAUUAUGUUACGCCGUUCGGAUCUGCACUUC: 0.454
AGUCCUGUGCUACACAUCGUAUGUACCGAAUCGGGGUGGGGAAAAAAAGGGGAGGGGAAAGUAUUAUGUUACGCCGUUCGGAUCUGCACU: 1.07
UCCUGUGCUACACAUCGUAUGUACCGAAUCGGGUUUUUUGGGGUUUUUUGGUUUUUUGGGAAAGUAUUAUGUUACGCCGUUCGGAUCUGC: -0.084

Study 3
Target: RNA binding protein fox-1 homolog 2, RRM domain, GST-SBP tag (RBFOX2, Homo sapiens, UniProt O43251-10, residues 100-194)
Technique: RNA Bind-n-Seq
Molecule type: RNA
Medium: in vitro
Concentration: 365 nM
Setting: natural RNA segment, single round, ends assumed
Baseline: no-protein control
Reading: higher = stronger binding
Quantity: RBNS enrichment (R)
Shared flanks, not repeated: GGGAGUUCUACAGUCCGACGAUC … UGGAAUUCUCGGGUGCCAA
Construct (chain): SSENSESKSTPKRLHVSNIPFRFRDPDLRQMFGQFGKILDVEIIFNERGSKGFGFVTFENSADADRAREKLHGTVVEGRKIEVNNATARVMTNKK
CAACGCUCAUAUUUAUUUCACAAACAGGACCAGCUGAGGGCGGGCGGGGCCAUCGGCUCAGCUCUUGGCUGCCUGGUCAGCCGGUCAGUGUUUUGCGGGGAGAGGUGGCG: 0.319
UUACAUUGUGUAUUUCUUCCUUUUAGGAAAAACCUACCUAGUACAAGCUACCACGUGCACAGACAGCCCAAUGAGUGGGCCAUUUCUCCACAACCCUGGUGUAAUACAGA: 0.368
UGGAAACAGUCCACUUGGGCGCAAAACCCAGUGCCUUCCAAAUGAGCUGCAGUCCCCAGGCCAUGAGCCUCCCGGGAAUGUUUAAUAAAGGGCCUGGCCAACUCUCCUCA: 0.582
CUAAAACUAAAUUUCUUUCAUGUCCUCCCUACUUCCUCAGUGUCAAUCAGAUUAAAGUGUGUAAUCCAUUUUAUGUGUGUAUAGUCUUUUUUGAAACAGCUGCUUAAAAU: 0.948
UUUAAUUCCCCCACCCCACCCUCUUUCUUUUGGUGGCUUCCACCACCCUUAAUGGUGACAGACUCCUGGGCCUGCCACCUUGGACUUCCCUUAGGCUCACAGUUCAGAUC: 0.362
GCUCUCUCAGAGGCGCCAGCCCCUCCCUCCCCAGCCGGAGGCGUCAUCUCUCUUCUGUACCACUAGAGGGAGCUCUGAUGCAGCUGGAGAGCAGCGCUCAAGGCUCUCGC: 0.284
UACAAGAUUUACUAAGUGGGAUAAGCUAAUUAUACUUUUUGUUGUGGAUAAACAAAUGCUUGUUGAUAGCCUUUUUCUAUCAAGAAACCAAGGAGCUAAUUAUUAAUAAC: 0.319
UGGCACUGUAAGGUGCUUGCUCCCCAAGACACAUCCUAAAAGGUGUUGUAAUGGUGAAAACGUCUUCCUUCUUUAUUGCCCCUUCUUAUUUAUGUGAACAACUGUUUGUC: 0.464

Study 4
Target: CCND1, cyclin fold, Cln2 fusion (human)
Technique: yeast growth competition, sequencing
Medium: yeast
Setting: weak parent motif
Baseline: not given
Reading: higher = stronger binding
Quantity: normalised enrichment score
Starting sequence: MICAL3 docking peptide (human); LQLRRQLSFSEDS
E11R: 0.128
S8F: 0.113
S10M: 0.13
L3C: 1.19
Q2N: 0.656
R5Y: 0.0798
L3K: -0.188
Q6Y: 0.0552
D12H: 0.233
R4K: 0.578
R4H: 0.13
S10P: 0.205
S8W: -0.119
L7T: -0.155
Q6A: 0.506
F9I: -0.363
S10I: -0.0875
S10R: -0.0018
F9K: 0.0714
D12R: -0.0699

Excerpt of the above (study 1):
ACAAUUUAUGAGAUUAUUGAUAAUUCUCAAGGAUUCUACGUUUGUCCAGUGGAGCCCCAAAACCGAAGCAAGAUGAAUAUUCCAUUCCGCAUUGGCAAUGCCAAAGGAGAUGAUGCUUUA: 0.17 ratio
AGGCGCAAAGCAGCAAAUGUCACGUUACUCACCUCCCUGGUGGAAGGAGAAGCUGUUCACUCCGCCCGGGAUUUUGGGUACAUUUGCGAAACGGAGUUUCCCGCCAAAGCCGUCUCUGAG: 0.0641 ratio
CCUUUCUUAGCAGUUAACCGAGAGCGGCGCCUCCCUCCGCGAGGAAACGGCAGCGUGUGCUGCCGCGUGGGUAUGGCCGACUACUCCACAGUGCCUCCGCCGUCGUCUGGCUCGGCUGGC: 0.519 ratio
UUGUGGGCGUUCUCGGGGAGCUGCUGCCGUAGCUGCCGCCGCCGCUACCACCGCGUUCGGGUGCCGAAUUUGGAAUCCCUGCGCCGCGUUAACAAUGAAGCAGAGUUCGAACGUGCCGGC: 0.112 ratio
UAGUGAAUGGUUUCCCCAGUGUAUAUGAAUGUUUUAAGUGUUUCCAAUAGCUUAUGAAAUUCCGGAGCUUUCUAAUACUCGUUUUAUAAAUUUAAUCAUUUGCUAAUGGAAAUUUUACCA: 4.66 ratio
GUAAAACUGGUACUUCCAAAGACCAAGUUUUCAAUGGUAUUACCAGAAGUAGAAGCGGCAUCCGCAGAGAUUCCCGGAGUCAGGAGUGUUGUAUUAUUUGGAGUAGAAACUCAUGUGUGC: 0.517 ratio
